Assay results pooled from the literature.
Parts stem from different laboratories: compare values within a part only. Positions count from the first letter of the parent shown.

Study 1 — technique: protein binding microarray; form: double-stranded DNA, one strand shown; matrix: in vitro; concentration: not given; reference: not given; reading: higher = stronger binding
Target: Histone acetyltransferase KAT6A, winged helix 1, GST fusion (KAT6A, Homo sapiens, UniProt Q92794, residues 1-85)
Notes: 8-mer, flanks averaged, mean of 2 arrays, mostly near background
Construct (chain): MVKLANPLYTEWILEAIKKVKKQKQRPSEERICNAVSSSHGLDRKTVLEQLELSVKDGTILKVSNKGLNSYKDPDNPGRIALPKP
`ACTACGGC` gave an E-score of 0.318.
The E-score of `AGTCTAGG` is reported as -0.0967.
`AGGTTGAC` has an E-score of -0.204.
The E-score of `CTCAGTTC` is reported as -0.186.
For `ACTTAAAG`, the E-score was -0.147.
`GATTAGAC` gave an E-score of -0.0532.
With `CCCTCAAC` the E-score was -0.116.
`CGAACCCA` has an E-score of -0.0576.
With `ATCGTCAC` the E-score was -0.171.
For `AGGGAACG`, the E-score was -0.196.
For `CTGCGCTA`, the E-score was 0.219.
For `CCTGCACA`, the E-score was -0.148.
`AGTTTCAA` has an E-score of -0.174.
`GATTCCTA` has an E-score of -0.016.
For `ATACTAGC`, the E-score was 0.0341.
The E-score of `CAGCACCG` is reported as 0.191.
`CTATTCCC` has an E-score of -0.0115.
For `ACACCTTC`, the E-score was 0.073.

Study 2 — target: CCNB3, cyclin fold, Cln2 fusion (human); technique: yeast growth competition, sequencing; matrix: yeast; notes: strong parent motif; reference: not given; reading: higher = stronger binding
Parent: PPP1R3F docking peptide (human); VAPRRVLFADEAL; partner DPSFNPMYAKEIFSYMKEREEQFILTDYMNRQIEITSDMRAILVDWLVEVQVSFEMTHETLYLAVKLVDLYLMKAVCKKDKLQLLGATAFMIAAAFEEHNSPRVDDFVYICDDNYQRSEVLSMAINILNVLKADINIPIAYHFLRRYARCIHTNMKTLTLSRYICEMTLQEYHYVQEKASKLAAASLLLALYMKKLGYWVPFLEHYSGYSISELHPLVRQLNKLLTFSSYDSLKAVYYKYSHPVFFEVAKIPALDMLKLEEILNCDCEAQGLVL
`VAARRVLFADEAL [P3A]` — result for “normalised enrichment score”: 1.47.
For `AAPRRVLFADEAL [V1A]`, “normalised enrichment score” read 1.22.
Under “normalised enrichment score”, `VAPRRVLFAAEAL [D10A]` is recorded as 0.978.
Under “normalised enrichment score”, `VAPRKVLFADEAL [R5K]` is recorded as 1.01.
`VAPRRVLAADEAL [F8A]`: “normalised enrichment score” 0.0709.
For `VAPRRVLFADEAA [L13A]`, “normalised enrichment score” read 1.72.

Study 3 — technique: RNA Bind-n-Seq; form: RNA; matrix: in vitro; concentration: 200 nM; notes: whole 134-nt RNA, ends assumed; added: 150 mM LiCl; reference: input library; reading: higher = stronger binding; library: 7-deaza-guanosine replaces G
Target: Fragile X messenger ribonucleoprotein 1, C-terminal low-complexity region (Fmr1, Mus musculus, UniProt P35922)
Shared flanks, not repeated: GGGAGUUCUACAGUCCGACGAUC … UGGAAUUCUCGGGUGUCAAGG
For `GCAGGAAGUAAAAACAAAUGGAAAUGCUUCGGAUAGUGGCAGGGGUGGGGGUUGCUUAGGAAAGGGUGGGAUGGGAGUGGGUAAAGAGUU`, the log2 enrichment was 1.16.
For `UAACUUUAGAGGAGGAUUUGAUGGAUAUGGCAGUGGACGUGGAUUUGGGGAUGGCUAUAAUGGGUAUGGAGGAGGACCUGGAGGUGGCAA`, the log2 enrichment was 0.658.
`UCAAGUCCUGUGCUACACAUCGUAUGUACCGAAUCGGGCCCGGGGCCCGGCCCGGAAAGUAUUAUGUUACGCCGUUCGGAUCUGCACUUC` has a log2 enrichment of -2.76.
The log2 enrichment of `AUUCUAUAAAUGGCAAGUAAGCCUGAAGUGAGGAUACUGCAAUUUUCGGAGAAAAGAACAGCAGCUCUUUAAGUGUUUGCAUUUUCUAUU` is reported as -2.58.
`GCAGGAAGUAAAAACAAAUGGAAAUGCUUCCGAUAGUGGCAGGGGUGGGGGUUGCUAAGGAAAGGGUGGGAUGGGAGUGGGUAAAGAGUU` gave a log2 enrichment of 1.27.
`ACCAUGCAGGUGGGCAUCUUUGGGAAGUGGGGCAAGGGGGGGAUAGGGAGGGGGGUAACACUUUGGGAACAGGUGGUCCCAGGUCGUGUC` has a log2 enrichment of 1.39.
The log2 enrichment of `UGGGAGGUGGAUUUUGUUUAUUUUUUUAGCUCAUUUCCAGGGGUGGGAAUUUUUUUUUAAAAUGUGUCAUGAAUAAAGUUGUUUUUGAAA` is reported as -0.164.
With `AGUCCUGUGCUACACAUCGUAUGUACCGAAUCGGGGCCCGGGGCCCGGGGCCCGGGGAAAGUAUUAUGUUACGCCGUUCGGAUCUGCACU` the log2 enrichment was -2.25.

Study 4 — technique: aptamer microarray, sandwich; form: DNA with 2'F-ANA; matrix: in vitro; concentration: 200 nM; added: Cy3 exosite-II aptamer, 400 nM; reading: higher = stronger binding; oligonucleotide: GGTTGGTGTGGTTGG
Target: Prothrombin, mature alpha-thrombin (F2, Homo sapiens, UniProt P00734)
Notes: whole 15-mer aptamer, many near background
`2'F-ANA at 1 4 6 8 9 11 12 13 14` — result for “mean fluorescence intensity”: 51.3 a.u.
Under “mean fluorescence intensity”, `2'F-ANA at 2 3 4 5 7 8 11 12 14` is recorded as 53.5 a.u.
Under “mean fluorescence intensity”, `2'F-ANA at 1 2 5 6 7 8 9 13 14` is recorded as 48.4 a.u.
`2'F-ANA at 2 3 7 8 11 12 13 14`: “mean fluorescence intensity” 539 a.u.
`2'F-ANA at 7 10 13 15`: “mean fluorescence intensity” 138 a.u.
Under “mean fluorescence intensity”, `2'F-ANA at 4 5 7 10 11 12` is recorded as 77.3 a.u.
Under “mean fluorescence intensity”, `2'F-ANA at 1 6 8 9 10 12 13 15` is recorded as 68.3 a.u.
For `2'F-ANA at 4 5 6 7 8 10 11 14 15`, “mean fluorescence intensity” read 55.4 a.u.
Under “mean fluorescence intensity”, `2'F-ANA at 1 2 3 5 11 12 13 14` is recorded as 70.3 a.u.
Under “mean fluorescence intensity”, `2'F-ANA at 2 3 5 6 9 12` is recorded as 205 a.u.
`2'F-ANA at 1 2 3 5 6 10 11 12 15` — result for “mean fluorescence intensity”: 52.4 a.u.
For `2'F-ANA at 2 3 4 8 9 15`, “mean fluorescence intensity” read 641 a.u.
For `2'F-ANA at 2 5 6 7 9 11 13 14 15`, “mean fluorescence intensity” read 46.6 a.u.
Under “mean fluorescence intensity”, `2'F-ANA at 4 11 13` is recorded as 210 a.u.
`2'F-ANA at 1 3 6 8 10 11`: “mean fluorescence intensity” 83.9 a.u.
Under “mean fluorescence intensity”, `2'F-ANA at 4 7 8 9 10 11 12 13 14 15` is recorded as 59.8 a.u.
Under “mean fluorescence intensity”, `2'F-ANA at 3 4 5 8 11 13 14 15` is recorded as 48.7 a.u.
For `2'F-ANA at 1 2 7 9 11 12 13`, “mean fluorescence intensity” read 205 a.u.
For `2'F-ANA at 1 4 8 10 11 12 13 14 15`, “mean fluorescence intensity” read 49.9 a.u.

Study 5 — target: UBE2V2 UBC core domain (UniProt Q15819); technique: yeast two-hybrid; matrix: yeast; notes: mostly zero background; reference: not given; reading: higher = stronger interaction
UniProt Q15819, sequence (whole entry, looked up): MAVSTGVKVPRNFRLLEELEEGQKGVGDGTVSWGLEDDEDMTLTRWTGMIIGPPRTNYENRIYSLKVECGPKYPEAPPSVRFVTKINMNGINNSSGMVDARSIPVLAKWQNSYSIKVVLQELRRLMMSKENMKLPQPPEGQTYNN
B1: RNF19A RING domain (UniProt Q9NV58); chain ISKQIGDFIECPLCLLRHSKDRFPDIMTCHHRSCVDCLRQYLRIEISESRVNISCPECTERFNPHDIR
B2: MAP3K1 RING domain (UniProt Q13233); chain NSIKDEEEQMCPICLLGMLDEESLTVCEDGCRNKLHHHCMSIWAEECRRNREPLICPLCRSKWRSHDFYS
B3: SH3RF1 RING domain (UniProt Q7Z6J0); chain DESALLDLLECPVCLERLDASAKVLPCQHTFCKRCLLGIVGSRNELRCPECRTLVGSGVEEL
B4: RBCK1 RING domain (UniProt Q9BYM8); chain SLVLNTEPAECPVCYSVLAPGEAVVLRECLHTFCRECLQGTIRNSQEAEVSCPFIDNTYSCSGKLLEREIK
B5: RNF133 RING domain (UniProt Q8WVZ7); chain DEEINPNGDSCVICFERYKPNDIVRILTCKHFFHKNCIDPWILPHGTCPICKCDILKVLGIQ
`B1 (RNF19A RING domain)` — result for “lacZ reporter activity”: 0.
Under “lacZ reporter activity”, `FDGDVDPDLKCALCHKVLEDPLTTPCGHVFCAGCVLPWVVQEGSCPARCRGRLSAKELN (PDZRN3 RING domain (UniProt Q9UPQ7))` is recorded as 0.
Under “lacZ reporter activity”, `B2 (MAP3K1 RING domain)` is recorded as 0.
`B3 (SH3RF1 RING domain)`: “lacZ reporter activity” 0.
`YQNEVDDDLVCHICLQPLLQPLDTPCGHTFCYKCLRNFLQEKDFCPLDRKRLHFKLCKK (LNX2 RING domain (UniProt Q8N448))` — result for “lacZ reporter activity”: 0.
`B4 (RBCK1 RING domain)` — result for “lacZ reporter activity”: 0.
Under “lacZ reporter activity”, `B5 (RNF133 RING domain)` is recorded as 0.

Single results of other studies — technique: cross-linking MS
Under cross-linked residues, `BAG6 (Homo sapiens, UniProt P46379)` is recorded as “K1052 to T1037” (PIK3R4 (Homo sapiens, UniProt Q99570); cell fractions; added: DSSO).
Under interaction screen, `PDIA4 (Homo sapiens, UniProt P13667)` is recorded as “cross-linked” (HSP90B1 (Homo sapiens, UniProt P14625); hits only).

Excerpt of the above (study 1):
The E-score of `CAGCACCG` is reported as 0.191.
`AGTTTCAA` has an E-score of -0.174.
`GATTCCTA` has an E-score of -0.016.
For `ACACCTTC`, the E-score was 0.073.
